Results collected from several papers.
A part holds a random share of what one study measured.

Set 1 — technique: protein-binding microarray; molecule type: double-stranded DNA, one strand shown; medium: in vitro; concentration: not given; reading: higher = stronger binding
Target: Protein C-ets-1 (ETS1, Homo sapiens, UniProt P14921, residues 1-441, full length assumed)
UniProt P14921, sequence (whole entry, looked up): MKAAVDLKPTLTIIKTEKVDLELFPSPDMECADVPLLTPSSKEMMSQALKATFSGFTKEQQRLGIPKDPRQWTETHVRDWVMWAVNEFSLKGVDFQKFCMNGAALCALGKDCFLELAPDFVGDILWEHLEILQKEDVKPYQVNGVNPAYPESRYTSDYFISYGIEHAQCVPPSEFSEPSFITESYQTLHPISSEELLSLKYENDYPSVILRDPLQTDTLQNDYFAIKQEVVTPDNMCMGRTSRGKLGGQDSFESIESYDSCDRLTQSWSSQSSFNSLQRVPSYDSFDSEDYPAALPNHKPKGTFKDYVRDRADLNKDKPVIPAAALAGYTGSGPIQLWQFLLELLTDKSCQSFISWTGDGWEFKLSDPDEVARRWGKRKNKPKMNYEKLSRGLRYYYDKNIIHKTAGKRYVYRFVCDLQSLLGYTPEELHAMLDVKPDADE
Notes: k-mer, scored over probes, only values ≥0.25
| Oligonucleotide | E-score |
| --- | --- |
| GAAGTGGA | 0.329 |
| ACTTTCCG | 0.392 |
| CGGGGAAG | 0.259 |
| CATCCTAC | 0.301 |

Set 2 — technique: RNA Bind-n-Seq; molecule type: RNA; medium: in vitro; concentration: 365 nM; relative to: no-protein control; reading: higher = stronger binding
Target: RNA binding protein fox-1 homolog 2, RRM domain, GST-SBP tag (RBFOX2, Homo sapiens, UniProt O43251-10, residues 100-194)
Notes: natural RNA segment, single round, ends assumed
Residues (chain): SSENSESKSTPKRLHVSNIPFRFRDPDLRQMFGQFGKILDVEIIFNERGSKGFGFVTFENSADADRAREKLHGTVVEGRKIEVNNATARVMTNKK
| Oligonucleotide | RBNS enrichment (R) |
| --- | --- |
| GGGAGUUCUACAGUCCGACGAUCAGGACAAAAUAAACUGACUGAAGGGUUCGCUACUUCCAGUCACAACCUGUGUAUAGAAGAAAGAAAGGGUCAGUGAUCGAGAAUCAGACACUCUCGUUCAGGAGGAGGCUUGGAAUUCUCGGGUGCCAA | 0.433 |
| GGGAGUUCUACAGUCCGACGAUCACUCAGCGGAAGGGGAACUUCUUCAUGGGUGGUUCAGAUGGUGGCUACACCAUCUGGUGAGGAACCAAGGCCACCUCUGUGCCGGGAAAGACAUCACAUACCUUCAGCACUGGAAUUCUCGGGUGCCAA | 0.18 |
| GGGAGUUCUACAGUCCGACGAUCUUUAAAUGAAAACUCAAAAUAAGACAAGUAAUUUGUUGAUAAAUAUUUUUAAAGAUAACUCAGCAUGUUUGUAAAGCAGGAUACAUUUUACUAAAAGGUUCAUUGGUUCCUGGAAUUCUCGGGUGCCAA | 10.5 |
| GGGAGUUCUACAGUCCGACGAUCUUAAUAUUUUACUCAGCCAGAGUCUCAUUCAUUUGCUAAGCAUUGGGAACAUUAUGUAUAUUGACCUUAAACAUAGGUGUCCUAUAUUUGGAUUGUGACUUGUAGACUCAUGGAAUUCUCGGGUGCCAA | 0.454 |
| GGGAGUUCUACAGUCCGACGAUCUCCCGACCCUGUCUCCGCCACCUCGCAGCCCCAUUAAAGCGCUCUCAUCUGGGCUCCGGUUCACUCACUCGCUGUGGCCGCGACUUGCUCUCUCCUUCUCGGGGUAAUUGUGGAAUUCUCGGGUGCCAA | 0.393 |

Set 3 — technique: universal PBM; molecule type: double-stranded DNA, one strand shown; medium: in vitro; concentration: 600 nM; reading: higher = stronger binding
Target: Sal-like protein 4, full length isoform A (SALL4, Homo sapiens, UniProt Q9UJQ4, residues 1-1053)
UniProt Q9UJQ4, sequence (whole entry, looked up): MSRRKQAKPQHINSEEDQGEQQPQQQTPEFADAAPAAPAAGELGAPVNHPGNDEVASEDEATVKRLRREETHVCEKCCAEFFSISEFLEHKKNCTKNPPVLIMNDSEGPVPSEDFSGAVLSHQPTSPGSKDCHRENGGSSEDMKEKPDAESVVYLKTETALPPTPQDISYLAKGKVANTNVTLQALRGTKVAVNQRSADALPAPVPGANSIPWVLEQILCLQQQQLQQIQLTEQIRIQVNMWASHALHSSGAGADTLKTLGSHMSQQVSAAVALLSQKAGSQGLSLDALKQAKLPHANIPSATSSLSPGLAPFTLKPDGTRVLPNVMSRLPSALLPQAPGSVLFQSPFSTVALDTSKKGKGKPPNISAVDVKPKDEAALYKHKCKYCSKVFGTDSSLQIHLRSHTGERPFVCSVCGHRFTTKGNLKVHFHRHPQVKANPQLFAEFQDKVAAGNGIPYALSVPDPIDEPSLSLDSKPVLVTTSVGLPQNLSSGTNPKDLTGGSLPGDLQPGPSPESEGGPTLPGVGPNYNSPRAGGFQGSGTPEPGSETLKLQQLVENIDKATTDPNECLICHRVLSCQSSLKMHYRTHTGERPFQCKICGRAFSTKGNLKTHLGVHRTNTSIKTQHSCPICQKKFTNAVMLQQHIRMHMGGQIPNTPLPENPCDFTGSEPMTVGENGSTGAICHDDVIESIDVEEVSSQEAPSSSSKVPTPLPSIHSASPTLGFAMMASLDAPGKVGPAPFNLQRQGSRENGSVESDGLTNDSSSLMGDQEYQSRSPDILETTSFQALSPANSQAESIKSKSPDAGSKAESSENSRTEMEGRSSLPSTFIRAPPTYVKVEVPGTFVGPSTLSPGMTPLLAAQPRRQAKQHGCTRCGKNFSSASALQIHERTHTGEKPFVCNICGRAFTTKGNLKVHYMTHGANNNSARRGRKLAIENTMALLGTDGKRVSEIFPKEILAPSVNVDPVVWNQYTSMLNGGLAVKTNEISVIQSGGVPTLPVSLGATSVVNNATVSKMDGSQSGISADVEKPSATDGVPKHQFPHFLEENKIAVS
Notes: 8-mer, flanks averaged, mean of replicates
| Oligonucleotide | E-score |
| --- | --- |
| GGATTAAC | -0.0311 |
| CACCGTCA | -0.071 |
| GCCCTAAA | -0.193 |
| ATCTGTGG | -0.158 |
| CAAGACCG | -0.248 |

Other studies, line by line
| Substance | target | assay | system | setting | how to read | endpoint | value |
| --- | --- | --- | --- | --- | --- | --- | --- |
| PhoQ, residues 284 288 289 292 302 303 NSMLDC | PhoP, residues 12 14 15 18 19 VQALL (Escherichia coli, UniProt P23836) | Sort-seq, refers to: YFP reporter | E. coli | PhoQ-PhoP variant library, together with: 10 µM Mg2+ | relative to: high Mg2+ state, higher = stronger signaling | fold induction | 12.7 |

Excerpt of the above (set 3):
| Oligonucleotide | E-score |
| --- | --- |
| GGATTAAC | -0.0311 |
